Assay results from different studies.
Each numbered part is a random draw from the data of one study; scales do not carry over between parts. Changes are numbered by the printed parent chain.

Sample 1
Target: Prothrombin, mature alpha-thrombin (F2, Homo sapiens, UniProt P00734)
Method: aptamer microarray, sandwich
Form: DNA with 2'F-ANA
Medium: in vitro
Concentration: 200 nM
Setting: whole 15-mer aptamer, many near background
Together with: Cy3 exosite-II aptamer, 400 nM
Reading: higher = stronger binding
Oligonucleotide: GGTTGGTGTGGTTGG
Under “mean fluorescence intensity”, `2'F-ANA at 5 6 7 8 9 12 13 14` is recorded as 65.9 a.u.
For `2'F-ANA at 3 5 6 10 13 15`, “mean fluorescence intensity” read 52.6 a.u.
`2'F-ANA at 3 5 6 7 10 11 12 13 14 15`: “mean fluorescence intensity” 56.9 a.u.
`2'F-ANA at 2 3 4 6 8 11 14`: “mean fluorescence intensity” 219 a.u.
Under “mean fluorescence intensity”, `2'F-ANA at 1 2 6 7 10 11 12 13 15` is recorded as 70 a.u.
`2'F-ANA at 2 3 5 9 11 13 14 15` — result for “mean fluorescence intensity”: 47.5 a.u.
`2'F-ANA at 2 3 4 6 8 12 14`: “mean fluorescence intensity” 317 a.u.
Under “mean fluorescence intensity”, `2'F-ANA at 1 2 6 8 13 15` is recorded as 127 a.u.

Sample 2
Target: Histone acetyltransferase KAT6A, both winged helices, GST fusion (KAT6A, Homo sapiens, UniProt Q92794, residues 1-181)
Method: protein binding microarray
Form: double-stranded DNA, one strand shown
Medium: in vitro
Concentration: not given
Setting: 8-mer, flanks averaged, mean of 2 arrays, mostly near background
Baseline: not given
Reading: higher = stronger binding
Residues (chain): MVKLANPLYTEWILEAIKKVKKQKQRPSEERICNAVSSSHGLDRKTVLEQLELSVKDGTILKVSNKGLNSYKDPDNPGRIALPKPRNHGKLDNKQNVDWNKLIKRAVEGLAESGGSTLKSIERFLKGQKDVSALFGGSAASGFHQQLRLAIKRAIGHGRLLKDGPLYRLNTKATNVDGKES
For `AACGTGAA`, the E-score was 0.0133.
`CTGTACTA` has an E-score of -0.1.
The E-score of `CATGACGC` is reported as 0.271.
For `GCCAAAAC`, the E-score was 0.00762.
`CTTTTTGC` has an E-score of -0.0412.
With `CGCGTCCG` the E-score was 0.277.
The E-score of `AGCTATCA` is reported as 0.0764.
With `AGTTAGTG` the E-score was -0.238.

Other studies, line by line
P1: PafA, mature enzyme, eGFP fusion (Elizabethkingia meningoseptica, UniProt Q9KJX5); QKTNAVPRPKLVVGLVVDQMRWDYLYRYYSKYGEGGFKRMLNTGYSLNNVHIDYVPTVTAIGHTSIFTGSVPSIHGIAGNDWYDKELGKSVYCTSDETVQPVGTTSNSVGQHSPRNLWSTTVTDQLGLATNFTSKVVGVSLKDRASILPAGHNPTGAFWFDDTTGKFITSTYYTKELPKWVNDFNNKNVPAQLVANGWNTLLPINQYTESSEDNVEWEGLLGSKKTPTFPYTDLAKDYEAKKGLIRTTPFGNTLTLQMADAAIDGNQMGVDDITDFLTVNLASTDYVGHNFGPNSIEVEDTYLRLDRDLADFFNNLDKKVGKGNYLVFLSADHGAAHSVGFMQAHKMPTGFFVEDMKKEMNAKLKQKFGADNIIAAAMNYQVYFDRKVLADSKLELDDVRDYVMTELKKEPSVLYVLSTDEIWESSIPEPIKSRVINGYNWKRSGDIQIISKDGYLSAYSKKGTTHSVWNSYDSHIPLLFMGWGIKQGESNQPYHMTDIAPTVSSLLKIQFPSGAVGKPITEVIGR
`P1 V320G`: “oxyanion analog dissociation constant” 613 nM (vanadate, free oxyanion; microfluidic competitive inhibition; in vitro, cell-free expressed; not given, derived from inhibition constants, unchanged parent 676 nM; lower = stronger binding).
`PhoQ, residues 284 288 289 292 302 303 SCKMEA` has a fold induction of 27.7 (PhoP, residues 12 14 15 18 19 LWHSL (Escherichia coli, UniProt P23836); Sort-seq, item: YFP reporter; E. coli; PhoQ-PhoP variant library, together with: 10 µM Mg2+; baseline: high Mg2+ state, higher = stronger signaling).

Repeated from above (sample 1):
`2'F-ANA at 2 3 5 9 11 13 14 15` — result for “mean fluorescence intensity”: 47.5 a.u.
`2'F-ANA at 2 3 4 6 8 12 14`: “mean fluorescence intensity” 317 a.u.
